Published values from different studies.
Protocols differ between the studies behind these lines. Numbers after ± are the reported error.
Protein S100-A16: Protein S100-A16 (Rattus norvegicus, UniProt A0ACM8QDC9)
Chain of UniProt P06276 (whole entry, looked up): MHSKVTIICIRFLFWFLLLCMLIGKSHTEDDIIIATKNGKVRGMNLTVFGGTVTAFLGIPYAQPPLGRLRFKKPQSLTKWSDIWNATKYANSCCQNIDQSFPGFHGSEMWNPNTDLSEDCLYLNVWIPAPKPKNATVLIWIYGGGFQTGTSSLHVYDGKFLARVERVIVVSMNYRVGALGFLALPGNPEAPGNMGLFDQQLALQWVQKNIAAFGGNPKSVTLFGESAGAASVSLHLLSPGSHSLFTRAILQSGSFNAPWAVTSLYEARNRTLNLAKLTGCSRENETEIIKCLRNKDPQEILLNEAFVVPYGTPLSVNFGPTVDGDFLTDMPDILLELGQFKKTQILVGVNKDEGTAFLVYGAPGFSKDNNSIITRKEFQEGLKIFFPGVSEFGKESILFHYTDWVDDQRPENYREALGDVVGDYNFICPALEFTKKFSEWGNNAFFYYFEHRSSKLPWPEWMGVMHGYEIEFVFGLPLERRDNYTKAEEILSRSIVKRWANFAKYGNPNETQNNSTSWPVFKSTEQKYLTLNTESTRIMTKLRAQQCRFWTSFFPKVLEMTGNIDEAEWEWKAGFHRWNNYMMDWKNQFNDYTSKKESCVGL
Chain of UniProt Q62351 (whole entry, looked up): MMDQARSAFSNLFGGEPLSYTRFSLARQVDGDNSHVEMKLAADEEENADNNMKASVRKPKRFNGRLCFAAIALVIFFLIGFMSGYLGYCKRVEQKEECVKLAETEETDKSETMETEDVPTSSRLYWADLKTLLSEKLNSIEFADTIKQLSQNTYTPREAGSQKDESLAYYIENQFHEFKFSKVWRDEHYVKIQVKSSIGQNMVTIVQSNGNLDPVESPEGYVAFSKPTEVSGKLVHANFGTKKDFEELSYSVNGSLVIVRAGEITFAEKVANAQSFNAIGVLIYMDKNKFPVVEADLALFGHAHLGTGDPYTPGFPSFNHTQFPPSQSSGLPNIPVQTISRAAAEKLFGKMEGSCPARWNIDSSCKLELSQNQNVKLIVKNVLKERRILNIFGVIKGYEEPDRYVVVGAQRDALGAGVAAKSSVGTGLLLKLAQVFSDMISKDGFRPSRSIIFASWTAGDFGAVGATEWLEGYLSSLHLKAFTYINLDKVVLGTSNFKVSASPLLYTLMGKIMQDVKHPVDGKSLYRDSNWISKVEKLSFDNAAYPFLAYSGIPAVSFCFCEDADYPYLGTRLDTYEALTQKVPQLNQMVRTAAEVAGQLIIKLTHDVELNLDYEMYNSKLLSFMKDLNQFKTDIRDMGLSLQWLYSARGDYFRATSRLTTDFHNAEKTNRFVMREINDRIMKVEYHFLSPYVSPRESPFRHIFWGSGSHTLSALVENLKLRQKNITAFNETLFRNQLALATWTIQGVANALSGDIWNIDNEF
Chain of UniProt P34947 (whole entry, looked up): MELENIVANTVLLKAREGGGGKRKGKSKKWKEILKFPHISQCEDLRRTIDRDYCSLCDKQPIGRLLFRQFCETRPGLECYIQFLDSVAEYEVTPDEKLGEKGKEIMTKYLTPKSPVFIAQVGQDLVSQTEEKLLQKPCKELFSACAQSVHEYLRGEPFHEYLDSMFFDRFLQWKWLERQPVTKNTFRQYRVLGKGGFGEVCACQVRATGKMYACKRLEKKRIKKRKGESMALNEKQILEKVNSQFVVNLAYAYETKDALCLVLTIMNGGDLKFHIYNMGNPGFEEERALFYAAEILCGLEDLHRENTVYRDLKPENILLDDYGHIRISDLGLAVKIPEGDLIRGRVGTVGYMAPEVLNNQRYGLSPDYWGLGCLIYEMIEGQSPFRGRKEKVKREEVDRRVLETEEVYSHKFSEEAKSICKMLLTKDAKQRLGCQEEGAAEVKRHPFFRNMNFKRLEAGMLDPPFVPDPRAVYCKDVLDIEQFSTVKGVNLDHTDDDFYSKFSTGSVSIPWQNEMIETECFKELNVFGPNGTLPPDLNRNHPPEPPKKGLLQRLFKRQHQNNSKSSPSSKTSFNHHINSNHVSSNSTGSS
Chain of UniProt Q00975 (whole entry, looked up): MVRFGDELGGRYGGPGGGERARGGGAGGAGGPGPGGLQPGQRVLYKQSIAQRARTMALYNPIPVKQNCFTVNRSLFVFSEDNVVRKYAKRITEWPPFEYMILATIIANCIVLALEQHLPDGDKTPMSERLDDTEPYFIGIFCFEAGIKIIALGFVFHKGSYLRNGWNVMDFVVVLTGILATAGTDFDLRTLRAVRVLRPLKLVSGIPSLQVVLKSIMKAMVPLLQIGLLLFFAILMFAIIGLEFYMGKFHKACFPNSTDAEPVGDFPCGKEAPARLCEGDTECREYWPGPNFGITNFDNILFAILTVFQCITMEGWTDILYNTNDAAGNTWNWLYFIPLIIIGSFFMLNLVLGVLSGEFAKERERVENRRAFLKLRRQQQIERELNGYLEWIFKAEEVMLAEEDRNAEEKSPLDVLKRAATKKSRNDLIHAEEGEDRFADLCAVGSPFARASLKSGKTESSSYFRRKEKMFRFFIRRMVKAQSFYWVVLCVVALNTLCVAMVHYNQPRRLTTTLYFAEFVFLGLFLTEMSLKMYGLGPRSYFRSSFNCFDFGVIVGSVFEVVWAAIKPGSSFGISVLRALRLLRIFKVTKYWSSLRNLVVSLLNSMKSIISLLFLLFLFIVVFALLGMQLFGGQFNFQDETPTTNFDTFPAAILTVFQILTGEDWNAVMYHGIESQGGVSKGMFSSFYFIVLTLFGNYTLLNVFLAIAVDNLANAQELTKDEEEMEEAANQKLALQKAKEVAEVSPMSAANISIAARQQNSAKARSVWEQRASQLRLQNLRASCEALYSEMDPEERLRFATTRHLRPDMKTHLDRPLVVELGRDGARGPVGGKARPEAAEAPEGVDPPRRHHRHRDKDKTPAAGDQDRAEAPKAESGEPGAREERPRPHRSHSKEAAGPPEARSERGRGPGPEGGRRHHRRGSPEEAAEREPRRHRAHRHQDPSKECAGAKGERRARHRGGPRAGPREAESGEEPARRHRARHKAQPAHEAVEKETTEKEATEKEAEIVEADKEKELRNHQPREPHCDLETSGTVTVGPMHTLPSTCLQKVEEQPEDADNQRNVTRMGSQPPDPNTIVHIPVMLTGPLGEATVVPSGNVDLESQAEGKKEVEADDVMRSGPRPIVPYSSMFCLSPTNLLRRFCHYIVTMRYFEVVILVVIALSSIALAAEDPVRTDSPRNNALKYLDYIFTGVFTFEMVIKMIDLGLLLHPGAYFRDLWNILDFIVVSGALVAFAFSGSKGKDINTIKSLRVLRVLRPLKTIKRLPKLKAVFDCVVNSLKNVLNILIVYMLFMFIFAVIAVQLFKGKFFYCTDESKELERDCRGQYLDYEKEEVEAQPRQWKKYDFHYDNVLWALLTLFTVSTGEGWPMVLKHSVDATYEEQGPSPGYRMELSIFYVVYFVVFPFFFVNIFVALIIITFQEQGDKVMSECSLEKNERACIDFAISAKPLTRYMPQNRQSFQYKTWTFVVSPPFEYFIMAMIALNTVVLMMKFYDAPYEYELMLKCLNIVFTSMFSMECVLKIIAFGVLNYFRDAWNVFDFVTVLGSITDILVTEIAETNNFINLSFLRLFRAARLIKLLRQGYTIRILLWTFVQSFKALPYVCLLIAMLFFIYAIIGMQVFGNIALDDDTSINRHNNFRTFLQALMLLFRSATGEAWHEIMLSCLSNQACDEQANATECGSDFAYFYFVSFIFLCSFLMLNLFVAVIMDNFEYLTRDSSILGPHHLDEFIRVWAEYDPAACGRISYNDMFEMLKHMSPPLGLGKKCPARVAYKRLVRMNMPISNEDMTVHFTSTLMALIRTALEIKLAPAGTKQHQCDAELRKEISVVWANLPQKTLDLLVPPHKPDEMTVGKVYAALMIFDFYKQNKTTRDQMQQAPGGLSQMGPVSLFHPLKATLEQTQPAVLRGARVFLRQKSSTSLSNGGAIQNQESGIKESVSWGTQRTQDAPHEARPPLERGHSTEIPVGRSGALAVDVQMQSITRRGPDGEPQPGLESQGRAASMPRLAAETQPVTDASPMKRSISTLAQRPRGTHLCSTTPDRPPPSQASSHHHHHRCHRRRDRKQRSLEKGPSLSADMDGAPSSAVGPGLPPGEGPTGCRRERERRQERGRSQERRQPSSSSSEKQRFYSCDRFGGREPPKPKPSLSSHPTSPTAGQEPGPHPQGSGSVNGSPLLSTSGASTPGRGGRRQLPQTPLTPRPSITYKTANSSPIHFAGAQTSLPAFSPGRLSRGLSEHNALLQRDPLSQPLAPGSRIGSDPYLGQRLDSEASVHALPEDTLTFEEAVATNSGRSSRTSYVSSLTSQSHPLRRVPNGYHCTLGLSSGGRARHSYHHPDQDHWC
Chain of UniProt Q15759 (whole entry, looked up): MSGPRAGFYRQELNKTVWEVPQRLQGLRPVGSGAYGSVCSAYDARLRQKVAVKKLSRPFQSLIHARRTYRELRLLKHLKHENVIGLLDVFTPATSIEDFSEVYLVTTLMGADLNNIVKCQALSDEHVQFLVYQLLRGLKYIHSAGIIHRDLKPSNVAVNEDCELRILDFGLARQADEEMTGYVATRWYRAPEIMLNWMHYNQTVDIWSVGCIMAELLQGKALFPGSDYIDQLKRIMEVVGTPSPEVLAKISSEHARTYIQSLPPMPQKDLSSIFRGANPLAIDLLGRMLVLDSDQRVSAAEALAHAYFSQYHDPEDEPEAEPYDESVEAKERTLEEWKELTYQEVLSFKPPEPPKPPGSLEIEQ
Chain of UniProt P32876 (whole entry, looked up): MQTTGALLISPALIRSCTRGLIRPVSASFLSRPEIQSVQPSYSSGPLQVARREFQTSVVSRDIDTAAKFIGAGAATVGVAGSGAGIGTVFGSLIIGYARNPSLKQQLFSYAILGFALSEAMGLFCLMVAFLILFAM

Compound | target | test | system | conditions | how to read | measurement | result
NCc1cc(=O)[nH]o1 | GABA-A receptor; alpha-1/beta-2/gamma-2 (Rattus norvegicus, UniProt P18508+P62813+P63138) | membrane potential, agonist, QP-DHM primary screen | HEK293 expressing GABAA | 10 µM | direction not given | normalized score | 0.965
CC1(C)C(C=C(Cl)Cl)C1C(=O)OCc1cccc(Oc2ccccc2)c1 (stereo not shown) | uncharacterized protein (Anopheles coluzzii, UniProt A0A6E8VQK1) | enzyme activity, inhibitor | Sf9 cell homogenate | 116.3 µM, 0.1667 h, together with: α-naphthyl acetate substrate | relative to: no inhibitor | remaining activity | 77%
CC(CCc1ccccc1)NC(C)C(O)c1ccc(O)cc1 (stereo not shown) | Cholinesterase (BCHE, Homo sapiens, UniProt P06276) |  |  | concentration not given, Triton |  | efficacy | -92.2 ± 6.19%
CN(C)C(=O)COC(=O)Cc1ccc(OC(=O)c2ccc(NC(=N)N)cc2)cc1 | TMPRSS2 (Homo sapiens, UniProt O15393) | enzyme activity, inhibitor |  |  |  | Hill slope | -1.27
CC(=O)P(=O)(O)OCCc1cn([C@H](Cc2ccccc2)C(=O)O)nn1 | dxs (Pseudomonas aeruginosa, UniProt Q9KGU7, R106A) |  |  | concentration not given, variant enzyme | relative to: wild type | Ki fold change | 16.5 fold
COc1cc(N)c(Cl)cc1C(=O)NC1CN2CCC1CC2 (stereo not shown) | GPR3 (Homo sapiens, UniProt P46089) | β-arrestin recruitment, TANGO luminescence |  | concentration not given | relative to: basal luminescence | log2 fold change | -0.06
CC1(C)CC(=O)c2cc3c(C#N)cn(Cc4ccccc4)c3nc2C1 | Gag-Pol polyprotein, reverse transcriptase (gag-pol, Human immunodeficiency virus type 1 group M subtype B, UniProt P04585) | DNA polymerase activity, inhibitor, FRET |  |  | relative to: mutant over wild type RT | IC50 fold change | 17
CC1(C)S[C@@H]2[C@H](/N=C/N3CCCCCC3)C(=O)N2[C@H]1C(=O)O | Penicillin-binding protein 2B (Streptococcus pneumoniae, UniProt P0A3M6) | inhibitor |  |  |  | kinact/KI | 26 ± 1.8 M⁻¹ s⁻¹
Cc1cc(-c2ccccc2)nnc1NCCN1CCOCC1 | Cholinesterase (BCHE, Homo sapiens, UniProt P06276) |  |  | concentration not given, Triton |  | efficacy | -98.2 ± 5.6%
CN1CCN(c2cc(-c3ccncc3)c(-c3ccc4ccccc4c3)nn2)CC1 | CYSLTR1 (Homo sapiens, UniProt Q9Y271) | antagonist, FLIPR |  | 10 µM |  | inhibition | 3.1%
CC[C@@H](C)[C@@H](NC(=O)[C@@H](Cc1ccc(O)cc1)NC(=O)[C@H]1CCCN1C(=O)[C@@H](CCCNC(=N)N)NC(=O)[C@H](N)Cc1c[nH]cn1)C(=O)N[C@H](C)C(=O)N[C@H](Cc1c[nH]cn1)C(=O)N[C@H](CCCNC(=N)N)C(=O)N[C@H](CCCCNC(=O)c1cccc(S(=O)(=O)F)c1)C(=O)N[C@H](Cc1ccc(O)cc1)C(=O)N[C@H](CO)C(=O)N[C@H](Cc1ccccc1)C(N)=O | Transferrin receptor protein 1 (Tfrc, Mus musculus, UniProt Q62351) | flow cytometry | RAW264.7 | 24 h, pH 6, replicate 1, unit not given | relative to: 0 h | surface TFRC expression | 0.83
Oc1cc(Cl)cc(-c2cccc(Cl)c2)c1 | Androgen receptor (AR, Homo sapiens, UniProt P10275) | reporter gene, antagonist |  | 24 h, together with: DHT 2 nM |  | IC25 | 700 nM
Nc1nc2c(ncn2[C@H]2C[C@H](O)[C@@H](COP(=O)(O)OP(=O)(O)OP(=O)(O)O)O2)c(=O)[nH]1 | Gag-Pol polyprotein, reverse transcriptase (gag-pol, Human immunodeficiency virus type 1 group M subtype B, UniProt P04585, K653A) | nucleotide misincorporation, steady-state kinetics |  | K66A RT, together with: matched template/primer, template T |  | kcat | 0.0253 ± 0.00367 s⁻¹
CC1=CC(=O)C=C(C)C1=O | Reaction center protein M chain, QA site (pufM, Cereibacter sphaeroides, UniProt P0C0Y9) | charge recombination | Rhodobacter sphaeroides, LDAO detergent solution | pH 7.8, 298 K, quinone reconstituted in QA site |  | P+QA− recombination rate | 1.75 s⁻¹
CCCCC/C=C\C/C=C\C/C=C\C/C=C\CCCC(=O)NCCO | Trpv1 (Mus musculus, UniProt Q704Y3, T551S) | ion current, agonist, whole-cell patch clamp |  | T551S |  | Hill coefficient | 3.12 ± 0.17
O=C(Nc1cnccc1Cl)N1CCN(Cc2ccc3c(c2)OC(F)(F)O3)CC1 | Protein S100-A16 | competitive ABPP with azido-FP probe | rat brain membrane fraction | 10 µM, unit not given | relative to: DMSO | probe labelling | -14.5
CC(C)C[C@H](NC(=O)[C@H](CCC1CCCCC1)NC(=O)[C@@H]1CCCN1C(=O)c1ccc(F)cc1)C(=O)NC(C)(C)C(=O)N[C@@H](CC(C)C)C(=O)N[C@@H](CC(C)C)C(=O)NC(C)(C)C(=O)NC(C)(C)C(=O)NCCC(=O)NC1(CN(C)C)CCC1 | ATP synthase F(0) complex subunit C1, mitochondrial (ATP5MC1, Bos taurus, UniProt P32876) | DCCD labeling competition |  | 1 µM, 5 min preincubation, 5 min labeling |  | DCCD-modified c-subunits | > 60%
CC[C@H](C)[C@H](NC(=O)[C@H](CCC(N)=O)NC(=O)[C@@H](NC(=O)[C@@H]1CCCN1C(=O)[C@@H](NC(=O)[C@H](CO)NC(=O)[C@H](Cc1ccccc1)NC(=O)[C@@H]1CCCN1C(=O)[C@H](CCC(N)=O)NC(=O)[C@@H](N)CCSC)[C@@H](C)CC)C(C)C)C(=O)N[C@H](C(=O)N[C@@H](CC(C)C)C(=O)N[C@@H](CCC(N)=O)C(=O)NCC(=O)N[C@@H](CO)C(=O)N[C@@H](CCCNC(=N)N)C(=O)N[C@@H](CCCNC(=N)N)C(=O)N[C@@H](CCCNC(=N)N)C(=O)N[C@@H](CCC(N)=O)C(=O)NCC(=O)N[C@@H](CCCNC(=N)N)C(N)=O)[C@@H](C)O | Kcnma1 (Mus musculus, UniProt Q08460) | ion current, blocker, inside-out patch clamp | Xenopus oocytes | +80 mV, together with: 10 µM cytosolic Ca2+ |  | Hill coefficient | 1.21
CN(C(=O)n1cnc(-c2ccc[n+]([O-])c2)c1)C1CCCCC1 | BAR/IMD domain-containing adapter protein 2 (Baiap2, Rattus norvegicus, UniProt Q6GMN2) | competitive ABPP with azido-FP probe, item: BAIAP2 | rat brain membrane fraction | 100 µM, unit not given | relative to: DMSO | probe labelling | -2.2

Compound | target | test | system | conditions | how to read | measurement | result
O=C(O)C(F)(F)C(F)(F)C(F)(F)C(F)(F)C(F)(F)C(F)(F)C(F)(F)F | SLC22A8 (Homo sapiens, UniProt Q8TCC7) | uptake, substrate, two-transporter equation fit | HEK293 cells stably expressing SLC22A8 | 2.5 min, 37 °C |  | Jmax | 629 ± 71 pmol/min/mg protein
COc1cc(CCC(=O)N2CCC(Cc3ccccc3)CC2)ccc1OC(=O)N1CCOCC1 | Cholinesterase (BCHE, Equus caballus, UniProt P81908) | Ellman | equine serum BuChE |  | relative to: AChE IC50 over BuChE IC50 | selectivity ratio | 1.6
CN(C(=O)n1cnc(-c2ccc[n+]([O-])c2)c1)C1CCCCC1 | Patatin-like phospholipase domain-containing 6 (Rattus norvegicus, UniProt M0R715) | enzyme activity, ABPP | rat, brain | oral, 100 mg/kg/day, 28 days | relative to: vehicle | fold change | -2.7
Cc1ccc(C(=O)N(CCCN)[C@@H](c2nc3cc(Cl)ccc3c(=O)n2Cc2ccccc2)C(C)C)cc1 | Kinesin-like protein KIF11, motor domain (KIF11, Homo sapiens, UniProt P52732, Y104C) | no effect on inhibition, inhibitor |  | Y104C vs wild type |  | resistance | no effect
COc1ccc(N2C(=O)N(c3c(C)cccc3Cl)Cc3cnc(Nc4ccc(C5CCN(C)CC5)cc4OC)nc32)nc1 | GRK5 (Homo sapiens, UniProt P34947) | kinase activity |  | 0.5 µM |  | inhibition | -2%
C=CCNCC(=O)O | putA (Sinorhizobium meliloti, UniProt F7X6I3) | FAD reduction, substrate, stopped-flow |  | 5 mM, anaerobic |  | kobs | 4.2 s⁻¹
O=C(Nc1cccnn1)N1CCC(=Cc2cccc(Oc3ccc(C(F)(F)F)cn3)c2)CC1 | Protein S100-A16 | competitive ABPP with azido-FP probe | rat brain membrane fraction | 0.01 µM, unit not given | relative to: DMSO | probe labelling | -5.9
Cc1cc(O)cc(C)c1C[C@H](C)C(=O)N[C@@H]1C/C=C/CC[C@@H](C(N)=O)NC(=O)[C@H](Cc2ccccc2)NC(=O)[C@H](Cc2ccccc2)NC1=O | Mu-type opioid receptor (Cavia porcellus, UniProt A0ACM8Q262) | antagonist | guinea pig ileum | µ opioid |  | Ke | 157 nM
O=C1c2ccncc2C(=O)c2c1[nH]c1ccccc21 | DNM1L (Homo sapiens, UniProt O00429) | inhibitor, immunoprecipitated protein | PAH hPASMC | concentration not given |  | GTPase activity | inhibited
C[C@H]1CN(c2n[nH]c3nc(N[C@H]4CC[C@H](NS(=O)(=O)CCC(F)(F)F)CC4)ncc23)CCO1 | MAPK11 (Homo sapiens, UniProt Q15759) | Kinobeads competition | HEK293, K562, placenta lysate | 0.8 µM, unit not given | relative to: vehicle | remaining binding | 0.44
O=C(CCCN1CCC2(CC1)C(=O)NCN2c1ccccc1)c1ccc(F)cc1 | Cholinesterase (BCHE, Homo sapiens, UniProt P06276) |  |  | concentration not given, Triton |  | efficacy | -74.2 ± 2.13%
Nc1nc2c(ncn2[C@@H]2O[C@@H]3COP(=O)(O)O[C@H]4[C@@H](O)[C@H](n5cnc6c(=O)[nH]c(N)nc65)O[C@@H]4COP(=O)(O)O[C@H]3[C@H]2O)c(=O)[nH]1 | Cell cycle histidine kinase CckA, R374A; cytoplasmic region (Caulobacter vibrioides, UniProt Q9X688, R374A) | isothermal titration calorimetry | Caulobacter crescentus | concentration not given, 12 °C, together with: ADP 5 mM |  | binding enthalpy (ΔH) | 1 kcal/mol
Nc1nc2c(ncn2[C@@H]2O[C@H](COP(=O)(O)OP(=O)(O)OP(=O)(O)O)[C@@H](O)[C@H]2O)c(=O)[nH]1 | GTP 3',8-cyclase (moaA, Staphylococcus aureus, UniProt P69848, R17K) | isothermal titration calorimetry |  | concentration not given, 25 °C, R17K mutant, anaerobic |  | binding enthalpy | -7.03 ± 0.32 kcal/mol
COc1ccc2[nH]c3c(c2c1)CCN(C)CC3.Cl | Voltage-dependent N-type calcium channel subunit alpha-1B (Homo sapiens, UniProt Q00975) | barium current, inhibitor, whole-cell patch clamp | HEK293T |  |  | Hill coefficient | 1.4 ± 0.7
O=C(c1ccc(Cl)cc1)N1CCN2C(=O)N(OC(=O)N3CCOc4ccccc43)C(=O)C2C1 (stereo not shown) | Retinoid-inducible serine carboxypeptidase (SCPEP1, Homo sapiens, UniProt Q9HB40) | enzyme activity, inhibitor, MS-based ABPP | SW-620 in situ | 10 µM, 2 h, 37 °C | relative to: compound over DMSO, lower = stronger inhibition | median ratio | 1.07
[2H]c1c([2H])c([C@]2([2H])CCCN2C(=O)C(C)(C)Oc2ccc3cn[nH]c3c2)c([2H])c([2H])c1C([2H])([2H])[2H] | CDC42BPA (Homo sapiens, UniProt Q5VT25) | KINOMEscan |  | 1 µM | relative to: DMSO control | remaining binding | 77%
C=CC[N+]1([C@H]2C[C@H]3[C@@H]4CC[C@H]5C[C@H](OC(C)=O)[C@@H](N6CCCCC6)C[C@]5(C)[C@H]4CC[C@]3(C)[C@H]2OC(=O)CC)CCCCC1 | Cholinesterase (BCHE, Homo sapiens, UniProt P06276) |  |  | concentration not given, Triton |  | efficacy | -115 ± 8.76%
Cc1nn(C)cc1-c1nc2c(N3CCN(Cc4ccc(Cl)cc4)CC3)c(Cl)cnc2[nH]1 | MAPK4 (Homo sapiens, UniProt P31152) | KINOMEscan |  | 1 µM | relative to: DMSO control | remaining binding | 96%

For quick reference, copied from above:
Compound | target | test | system | conditions | how to read | measurement | result
CC1(C)C(C=C(Cl)Cl)C1C(=O)OCc1cccc(Oc2ccccc2)c1 (stereo not shown) | uncharacterized protein (Anopheles coluzzii, UniProt A0A6E8VQK1) | enzyme activity, inhibitor | Sf9 cell homogenate | 116.3 µM, 0.1667 h, together with: α-naphthyl acetate substrate | relative to: no inhibitor | remaining activity | 77%
Nc1nc2c(ncn2[C@@H]2O[C@@H]3COP(=O)(O)O[C@H]4[C@@H](O)[C@H](n5cnc6c(=O)[nH]c(N)nc65)O[C@@H]4COP(=O)(O)O[C@H]3[C@H]2O)c(=O)[nH]1 | Cell cycle histidine kinase CckA, R374A; cytoplasmic region (Caulobacter vibrioides, UniProt Q9X688, R374A) | isothermal titration calorimetry | Caulobacter crescentus | concentration not given, 12 °C, together with: ADP 5 mM |  | binding enthalpy (ΔH) | 1 kcal/mol
O=C(CCCN1CCC2(CC1)C(=O)NCN2c1ccccc1)c1ccc(F)cc1 | Cholinesterase (BCHE, Homo sapiens, UniProt P06276) |  |  | concentration not given, Triton |  | efficacy | -74.2 ± 2.13%
Cc1cc(-c2ccccc2)nnc1NCCN1CCOCC1 | Cholinesterase (BCHE, Homo sapiens, UniProt P06276) |  |  | concentration not given, Triton |  | efficacy | -98.2 ± 5.6%
